# Measurements gathered from unrelated publications.
# Every numbered part comes from another study and shows a few of its results, in no order.

# Set 1 — read-out: peptide-MHC binding; form: peptide; concentration: concentration not given
# Target: HLA class I histocompatibility antigen, A alpha chain, allele A*80:01 (Homo sapiens, UniProt P04439)
Molecule,binding
TRAPAPFPL,inactive
YQVEGATRV,inactive
PHAATIRVL,inactive
TEWPQLKVA,inactive
KSAAIDGEY,inactive
DLAQDPMLI,inactive
EVRKAIEFV,inactive
KFFMVHSLK,inactive

# Set 2 — target: UBE2W UBC core domain (UniProt Q96B02); method: yeast two-hybrid; matrix: yeast; setting: mostly zero background; relative to: not given; direction: higher = stronger interaction
# UniProt Q96B02, sequence (whole entry, looked up): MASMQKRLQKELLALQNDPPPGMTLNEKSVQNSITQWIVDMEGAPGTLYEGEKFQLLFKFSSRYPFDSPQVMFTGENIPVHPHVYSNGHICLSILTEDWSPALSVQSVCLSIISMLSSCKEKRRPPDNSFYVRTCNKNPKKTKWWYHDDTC
# B1: RNF133 RING domain (UniProt Q8WVZ7); chain DEEINPNGDSCVICFERYKPNDIVRILTCKHFFHKNCIDPWILPHGTCPICKCDILKVLGIQ
# B2: ZMIZ2 RING domain (UniProt Q8NF64); chain GTIPGTPGPNGEDGVEQTAIKVSLKCPITFRRIQLPARGHDCRHIQCFDLESYLQLNCERGTWRCPVCNKTALLEGLEVDQYMLGILIYIQNSDYEEITIDPTCSWK
# B3: SH3RF1 RING domain (UniProt Q7Z6J0); chain DESALLDLLECPVCLERLDASAKVLPCQHTFCKRCLLGIVGSRNELRCPECRTLVGSGVEEL
# B4: RFWD3 RING domain (UniProt Q6PCD5); chain ASMDEEEGDTCTICLEQWTNAGDHRLSALRCGHLFGYRCISTWLKGQVRKCPQCNKKARHSDIVV
# B5: DTX2 RING domain (UniProt Q86UW9); chain EELKVPPDEDCIICMEKLSTASGYSDVTDSKAIGSLAVGHLTKCSHAFHLLCLLAMYCNGNKDGSLQCPSCKTIYGEKTGTQ
# B6: RNF121 RING domain (UniProt Q9H920); chain MPTKHLSDSVCAVCGQQIFVDVSEEGIIENTYRLSCNHVFHEFCIRGWCIVGKKQTCPYCKEKVDLKRMFS
Molecule,lacZ reporter activity
B1 (RNF133 RING domain),2310
B2 (ZMIZ2 RING domain),0
B3 (SH3RF1 RING domain),0
B4 (RFWD3 RING domain),0
B5 (DTX2 RING domain),0
B6 (RNF121 RING domain),0
AMYLQENGIDCPKCKFSYALARGGCMHFHCTQCRHQFCSGCYNAFYAKNKC (RNF31 RING domain (UniProt Q96EP0)),0
FDGDVDPDLKCALCHKVLEDPLTTPCGHVFCAGCVLPWVVQEGSCPARCRGRLSAKELN (PDZRN3 RING domain (UniProt Q9UPQ7)),0

# Other studies, line by line
SMILES,target or system,test,setting,how to read,endpoint,result
CNCC(O)c1ccc(O)cc1 (stereo not drawn),Sarcocystis neurona,parasite growth,"10 µM, 96 h, second screen",relative to: untreated,log2 fold change,0.23
CCN(CC)CCOC(=O)C(O)(c1ccccc1)c1ccccc1,HaCaT,,"100 µM, 36 h",,viability,93%

# Some of these lines once more (set 2):
Molecule,lacZ reporter activity
B2 (ZMIZ2 RING domain),0
